Results from different studies.
Lines come from different studies, so protocols differ.

FC(F)(F)c1ccc(CNc2ccc(Cc3c[nH]c4ncc(Cl)cc34)cn2)cn1
patients with treatment-related adverse event (refers to: skin hypopigmentation; patients with TGCT; oral, 1000 mg/day, grade 3 or higher): 0%

NC(=O)N1c2ccccc2C=Cc2ccccc21
patients with ALT increased (male patients; oral, dose not given, on-treatment adverse events): 7%

Cc1cc(-c2nnc(N)nc2-c2ccc(F)cc2)cc(Cl)n1
patients with immune-mediated AE (refers to: Hyperthyroidism; IO-naive colorectal cancer patients; oral, dose not given, treatment-related, all grades): 0%

C=CC(=O)Nc1cc(Nc2nccc(-c3cn(C)c4ccccc34)n2)c(OC)cc1N(C)CCN(C)C
patients with treatment-related AEs (refers to: Thrombocytopenia grade ≥3; EGFR-mutant MET-altered NSCLC; oral, study): 0%

O=C(Nc1nc2cccc(-c3ccc(CN4CCS(=O)(=O)CC4)cc3)n2n1)C1CC1
patients with any TEAE (rheumatoid arthritis patients; oral, 100 mg twice daily, 4 weeks, regardless of relatedness): 33.3%

CNC(=O)c1ccc(-c2cnc3ncc(Cc4ccc5ncccc5c4)n3n2)cc1F
patients with adverse event (refers to: Headache; hepatocellular carcinoma patients; oral, 600 mg twice daily, expansion cohort, grade 3-4): 0%

Cc1cc(NC2CCN(C(=O)OC3CCN(C(=O)/C=C/CN(C)C)C3)CC2)n2ncc(C(C)C)c2n1 (stereo not drawn)
patients with adverse event (Phase I dose escalation CTCAE v4.0, refers to: Vomiting; patients with advanced solid tumours; dose not given, all dose schedules any grade): 22%

COc1cc(Nc2ncc3c(n2)-c2ccc(Cl)cc2C(c2c(F)cccc2OC)=NC3)ccc1C(=O)O
patients with adverse event (refers to: Pain, grade 2; cancer patients, phase 1/2; oral, dose not given, with: pembrolizumab): 8%

CNC(=O)c1cc(Oc2ccc(NC(=O)Nc3cc(C(C)(C)C)nn3-c3ccc4ncccc4c3)c(F)c2)ccn1
patients with nervous system disorders (patients; oral, dose not given, cycles 1 and 2, High Cmax subgroup): 67%

Excerpt of the above:
Cc1cc(-c2nnc(N)nc2-c2ccc(F)cc2)cc(Cl)n1
patients with immune-mediated AE (refers to: Hyperthyroidism; IO-naive colorectal cancer patients; oral, dose not given, treatment-related, all grades): 0%
